Assay results pooled from the literature.
Compare with care: the assays were run in different laboratories. In brackets after ≈: the same amount, converted by molar mass.
UniProt P51813, sequence (whole entry, looked up): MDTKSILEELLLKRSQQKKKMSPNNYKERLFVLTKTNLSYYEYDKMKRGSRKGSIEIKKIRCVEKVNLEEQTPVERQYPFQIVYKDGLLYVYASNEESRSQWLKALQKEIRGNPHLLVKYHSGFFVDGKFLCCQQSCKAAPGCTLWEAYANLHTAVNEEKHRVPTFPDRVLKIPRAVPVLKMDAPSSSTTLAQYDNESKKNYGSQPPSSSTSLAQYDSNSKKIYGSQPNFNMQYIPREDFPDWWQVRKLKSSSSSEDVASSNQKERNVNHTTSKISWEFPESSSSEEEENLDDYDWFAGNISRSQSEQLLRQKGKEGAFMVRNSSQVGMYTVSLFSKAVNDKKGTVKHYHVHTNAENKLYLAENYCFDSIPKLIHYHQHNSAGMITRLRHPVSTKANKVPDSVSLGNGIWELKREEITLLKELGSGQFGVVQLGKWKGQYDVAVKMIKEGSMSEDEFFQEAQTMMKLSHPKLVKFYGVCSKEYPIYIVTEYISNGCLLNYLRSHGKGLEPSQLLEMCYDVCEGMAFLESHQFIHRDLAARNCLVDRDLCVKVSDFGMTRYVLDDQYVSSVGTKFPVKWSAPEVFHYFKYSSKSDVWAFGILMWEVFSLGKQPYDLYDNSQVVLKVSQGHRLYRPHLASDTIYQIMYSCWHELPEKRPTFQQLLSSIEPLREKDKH

With C#Cc1ccc(C=NNC(=O)c2ccc(COC)cc2)c(O)c1 the MIC80 was 2 µg/mL (≈ 6.49 µM) (Candida albicans; microbial growth; pH 7.4).
For COC(=O)c1cc(-c2cccc(NC(=O)Nc3cccc(C(F)(F)F)c3)c2)on1, the MIC was > 64 µg/mL (Mycolicibacterium fortuitum; microbial growth, broth dilution; ATCC6841; 48 h).
O=C(CN1CCN(C(=O)c2ccco2)CC1)Nc1ccccc1Br has an EC50 of 327 nM (Plasmodium falciparum; parasite growth, SYBR Green; 3D7; 72 h).
O=C(NNc1ccc(F)c(F)c1)c1nnc(C23CC4CC(CC(C4)C2)C3)o1 has an EC50 of > 50 µg/mL (Rhizoctonia solani; microbial growth).
For [2H]c1c([2H])c([C@]2([2H])CCCN2C(=O)C(C)(C)Oc2ccc3cn[nH]c3c2)c([2H])c([2H])c1C([2H])([2H])[2H], the remaining binding was 96% (BMX (Homo sapiens, UniProt P51813); binding, competition with immobilised ligand; 1 µM).
Cc1ccc(NNC(=O)c2nnc(CC34CC5CC(CC(C5)C3)C4)o2)cc1 gave an EC50 of > 50 µg/mL (Rhizoctonia solani; microbial growth).
With O=C(Nc1cccc(-c2cc(C(=O)O)no2)c1)Nc1ccc(Cl)c(Cl)c1 the MIC was > 64 µg/mL (Mycolicibacterium fortuitum; microbial growth, broth dilution; ATCC6841; 48 h).
COCC(C)n1c(SCC(=O)Nc2cc(C(F)(F)F)ccc2Cl)nc2ccccc2c1=O (stereo not shown) has an EC50 of 406 nM (Plasmodium falciparum; parasite growth, SYBR Green; 3D7; 72 h).
COC(=O)c1cc(-c2cccc(NC(=O)Nc3ccc(F)cc3F)c2)on1 gave an MIC of > 64 µg/mL (Mycobacteroides chelonae; microbial growth, broth dilution; ATCC35752; 48 h).
The EC50 of Cc1nc(Nc2ccc(C)c(Cl)c2)c2c(C)noc2n1 is reported as 1660 nM (Plasmodium falciparum; parasite growth, SYBR Green; 3D7; 72 h).
C#Cc1ccc(O)c(C=NNC(=O)c2ccc(COC)cc2)c1 has an MIC80 of 0.25 µg/mL (≈ 0.811 µM) (Candida albicans; microbial growth; pH 7.4).
For COC(=O)c1cc(-c2cccc(NC(=O)Nc3cccc(C#N)c3)c2)on1, the MIC was > 64 µg/mL (Pseudomonas aeruginosa; microbial growth, broth dilution; ATCC27853).
For C#Cc1cccc(O)c1C=NNC(=O)c1ccc(Br)cc1, the MIC80 was 8 µg/mL (≈ 23.3 µM) (Candida albicans; microbial growth; pH 7.4).
C[C@@H]1[C@H](O)[C@@H](C)/C=C/C=C/C=C/C=C/C=C/C=C/C=C/[C@H](O[C@@H]2O[C@H](C)[C@@H](O)[C@H](N)[C@@H]2O)C[C@@H]2O[C@](O)(C[C@@H](O)C[C@@H](O)[C@H](O)CC[C@@H](O)C[C@@H](O)CC(=O)O[C@H]1C)C[C@H](O)[C@H]2C(=O)O gave an MFC of 1 µM (≈ 0.924 µg/mL) (Candida albicans; microbial killing, broth dilution; SP3903; 48 h).
The IC50 of C=C(C)[C@@]12C[C@@H](COC(=O)c3ccccc3)[C@@]34OC5(O[C@@H]1[C@@H]3[C@@H]1O[C@]1(CO)[C@@H](O)[C@@]1(O)[C@H]4[C@H]([C@H](C)[C@@H]1OC(=O)c1ccccc1)[C@H](C)CCCCCC[C@H]5O)O2 is reported as 0.28 nM (Human immunodeficiency virus 1; viral replication; MT4).
For O=C(NNc1cc(F)ccc1F)c1nnc(C23CC4CC(CC(C4)C2)C3)o1, the EC50 was 7.33 µg/mL (Rhizoctonia solani; microbial growth).
For C#Cc1ccc(C=NNC(=O)c2ccc(COCCC)cc2)c(O)c1, the MIC80 was 0.5 µg/mL (≈ 1.49 µM) (Candida albicans; microbial growth; pH 7.4).
COC(=O)c1cc(-c2cccc(NC(=O)Nc3ccc(Cl)c(Cl)c3)c2)on1 has an MIC of > 64 µg/mL (Pseudomonas aeruginosa; microbial growth, broth dilution; ATCC27853).
For C#Cc1cccc(O)c1C=NNC(=O)c1ccc(Br)c(Br)c1, the MIC80 was 0.06 µg/mL (≈ 0.142 µM) (Cryptococcus neoformans; microbial growth, broth dilution; pH 7.4).
With COC(=O)c1cc(-c2cccc(NC(=O)Nc3cc(Cl)ccc3Cl)c2)on1 the MIC was > 64 µg/mL (Mycobacteroides chelonae; microbial growth, broth dilution; ATCC35752; 48 h).
O[C@H](CNCCCC(F)(F)F)c1cc(Cl)cc2c1-c1ccc(Cl)cc1C2 gave an IC50 of 4.1 nM (Plasmodium falciparum; parasite growth, SYBR Green; W2; 48 h, drug-resistant strain, blood stage).
Nc1ncnc2c([C@@H]3N[C@H](CO)[C@@H](O)[C@H]3O)c[nH]c12 has an inhibition of 22.8% (Dengue virus; viral replication; Vero 76, DENV2; 9.5 µM).
C#Cc1ccc(C=NNC(=O)c2ccc(Br)cc2)c(O)c1 has an MIC80 of 4 µg/mL (≈ 11.7 µM) (Candida albicans; microbial growth; pH 7.4).
With COC(=O)c1cc(-c2cccc(NC(=O)Nc3ccc(C(F)(F)F)cc3)c2)on1 the MIC was > 64 µg/mL (Mycobacteroides chelonae; microbial growth, broth dilution; ATCC35752; 48 h).
OC(Cn1cncn1)(Cn1cncn1)c1ccc(F)cc1F has an MFC of > 64 µM (Candida albicans; microbial killing, broth dilution; 58288; 48 h).

Some of these lines once more:
COCC(C)n1c(SCC(=O)Nc2cc(C(F)(F)F)ccc2Cl)nc2ccccc2c1=O (stereo not shown) has an EC50 of 406 nM (Plasmodium falciparum; parasite growth, SYBR Green; 3D7; 72 h).
COC(=O)c1cc(-c2cccc(NC(=O)Nc3ccc(F)cc3F)c2)on1 gave an MIC of > 64 µg/mL (Mycobacteroides chelonae; microbial growth, broth dilution; ATCC35752; 48 h).
